# Assay results from different studies.
# Each numbered part is a random draw from the data of one study; scales do not carry over between parts. Substitutions count along the parent as printed.

# Set 1 — target: CCND3, cyclin fold, Cln2 fusion (human); technique: yeast growth competition, sequencing; matrix: yeast; setting: weak parent motif; relative to: not given; direction: higher = stronger binding; starting sequence: viral docking peptide; PTARRRLLHDLDT
Substitution,normalised enrichment score
L8A,0.0881
R5A,0.119
D12A,0.0554
R5K,0.135
R5K L8F,-0.123
R4A,0.0291
T13A,0.12
P1A,0.13

# Set 2 — technique: Spec-seq; form: double-stranded DNA, one strand shown; matrix: in vitro; concentration: not given; setting: whole probe, mean of replicates; relative to: not given; direction: lower = stronger binding; constant ends, left off below: GAGTCGTCTCGTCAGCAC … CCGTAGAGCACTCAGGTC
# Target: POU, POU domain (Salpingoeca helianthica)
# Target sequence (chain): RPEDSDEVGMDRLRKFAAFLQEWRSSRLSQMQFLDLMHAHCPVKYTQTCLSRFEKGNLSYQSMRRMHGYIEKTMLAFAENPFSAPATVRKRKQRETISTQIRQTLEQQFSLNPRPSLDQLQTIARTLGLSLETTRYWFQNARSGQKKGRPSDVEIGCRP
Oligonucleotide,relative binding energy [ln ratio]
ATATTTAT,-0.208
TCGTTAAT,-1.02
ATACTCAT,1.22
ATGCATTC,1.14
CTCCTAAT,0.45
TGACTAAT,0.553
CTAGTAAT,0.289
TTATTAAT,-0.896

# Set 3 — target: tungstate, free oxyanion; technique: microfluidic competitive inhibition; matrix: in vitro, cell-free expressed; concentration: not given; direction: lower = stronger binding
# Setting: derived from inhibition constants, unchanged parent 2230 nM
# Starting sequence: PafA, mature enzyme, eGFP fusion (Elizabethkingia meningoseptica, UniProt Q9KJX5); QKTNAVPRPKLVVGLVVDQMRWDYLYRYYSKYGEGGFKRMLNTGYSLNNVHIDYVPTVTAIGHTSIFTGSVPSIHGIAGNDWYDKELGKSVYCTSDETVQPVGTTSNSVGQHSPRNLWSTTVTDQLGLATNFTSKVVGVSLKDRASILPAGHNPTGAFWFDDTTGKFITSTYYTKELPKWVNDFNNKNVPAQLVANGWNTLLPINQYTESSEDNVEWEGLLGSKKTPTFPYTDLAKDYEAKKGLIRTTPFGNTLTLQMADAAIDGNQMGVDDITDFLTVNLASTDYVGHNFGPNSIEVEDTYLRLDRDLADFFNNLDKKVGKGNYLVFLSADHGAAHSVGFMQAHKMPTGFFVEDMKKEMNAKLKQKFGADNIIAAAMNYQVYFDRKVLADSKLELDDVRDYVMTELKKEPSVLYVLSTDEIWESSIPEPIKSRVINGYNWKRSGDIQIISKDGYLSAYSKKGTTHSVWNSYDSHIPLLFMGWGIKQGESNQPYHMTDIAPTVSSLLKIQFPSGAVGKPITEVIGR
Substitution,oxyanion analog dissociation constant [µM]
V279G,1.2
E406V,2.15
K508G,1.07

# Set 4 — effect on: binding; technique: phage display NGS; form: peptide; setting: panning round 2; relative to: input library
# Target: UDP-N-acetylglucosamine--peptide N-acetylglucosaminyltransferase 110 kDa subunit (OGT, Homo sapiens, UniProt O15294)
# Residues (O15294 1-1046): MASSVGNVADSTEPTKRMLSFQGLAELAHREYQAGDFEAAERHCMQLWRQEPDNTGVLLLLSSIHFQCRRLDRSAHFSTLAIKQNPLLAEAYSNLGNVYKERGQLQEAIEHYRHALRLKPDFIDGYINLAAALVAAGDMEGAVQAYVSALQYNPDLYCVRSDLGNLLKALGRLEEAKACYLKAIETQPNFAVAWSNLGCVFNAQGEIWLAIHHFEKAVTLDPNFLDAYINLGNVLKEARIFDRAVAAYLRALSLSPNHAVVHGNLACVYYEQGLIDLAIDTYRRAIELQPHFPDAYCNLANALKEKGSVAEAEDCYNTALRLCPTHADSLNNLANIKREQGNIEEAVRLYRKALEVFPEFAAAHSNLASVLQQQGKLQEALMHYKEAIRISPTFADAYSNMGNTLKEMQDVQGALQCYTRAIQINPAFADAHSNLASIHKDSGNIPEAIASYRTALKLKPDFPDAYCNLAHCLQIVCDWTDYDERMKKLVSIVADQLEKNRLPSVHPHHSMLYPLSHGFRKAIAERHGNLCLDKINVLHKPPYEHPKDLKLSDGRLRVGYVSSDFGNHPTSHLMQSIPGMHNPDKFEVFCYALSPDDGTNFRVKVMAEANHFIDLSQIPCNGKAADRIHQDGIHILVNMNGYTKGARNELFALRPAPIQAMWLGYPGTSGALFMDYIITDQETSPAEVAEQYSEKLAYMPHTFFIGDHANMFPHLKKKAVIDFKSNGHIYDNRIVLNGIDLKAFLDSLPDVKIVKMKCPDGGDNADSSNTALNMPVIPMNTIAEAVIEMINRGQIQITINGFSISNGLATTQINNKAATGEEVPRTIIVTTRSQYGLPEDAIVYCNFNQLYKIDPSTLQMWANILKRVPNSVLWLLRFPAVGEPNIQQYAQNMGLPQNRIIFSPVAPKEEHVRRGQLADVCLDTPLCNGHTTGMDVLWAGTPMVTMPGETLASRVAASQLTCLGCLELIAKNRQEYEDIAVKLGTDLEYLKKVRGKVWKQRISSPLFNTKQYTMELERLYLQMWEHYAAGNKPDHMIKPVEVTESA
Sequence,minimum log2 enrichment ratio
MFMPHYQIIMSATES,6.51
HWRPHHHMGEEINV,2.37
HDPYHYRYSPQHNSY,2.63
